Published values from different studies.
Parts stem from different laboratories: compare values within a part only.
Chain of UniProt Q9BUB5 (whole entry, looked up): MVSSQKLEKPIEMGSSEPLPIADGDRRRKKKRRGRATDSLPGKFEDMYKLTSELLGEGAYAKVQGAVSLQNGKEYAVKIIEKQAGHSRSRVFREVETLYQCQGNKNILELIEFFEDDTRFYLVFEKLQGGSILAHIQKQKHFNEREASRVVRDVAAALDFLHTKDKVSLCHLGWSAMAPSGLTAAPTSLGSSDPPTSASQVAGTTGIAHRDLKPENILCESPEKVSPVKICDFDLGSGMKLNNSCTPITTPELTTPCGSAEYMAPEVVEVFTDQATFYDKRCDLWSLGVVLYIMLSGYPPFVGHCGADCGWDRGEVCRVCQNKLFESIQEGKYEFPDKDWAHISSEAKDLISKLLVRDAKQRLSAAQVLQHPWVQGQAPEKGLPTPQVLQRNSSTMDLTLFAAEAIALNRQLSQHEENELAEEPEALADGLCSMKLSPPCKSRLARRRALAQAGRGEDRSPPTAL
Chain of UniProt Q14012 (whole entry, looked up): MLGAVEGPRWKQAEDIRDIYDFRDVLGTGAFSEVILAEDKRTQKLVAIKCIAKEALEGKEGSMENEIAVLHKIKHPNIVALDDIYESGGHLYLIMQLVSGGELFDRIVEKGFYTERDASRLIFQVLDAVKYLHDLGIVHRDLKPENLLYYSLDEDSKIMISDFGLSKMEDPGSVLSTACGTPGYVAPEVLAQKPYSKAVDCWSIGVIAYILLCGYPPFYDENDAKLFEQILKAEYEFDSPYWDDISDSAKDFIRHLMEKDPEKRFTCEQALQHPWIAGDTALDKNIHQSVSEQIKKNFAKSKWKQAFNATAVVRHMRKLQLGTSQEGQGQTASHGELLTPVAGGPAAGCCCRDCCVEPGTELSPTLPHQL
Chain of UniProt Q14164 (whole entry, looked up): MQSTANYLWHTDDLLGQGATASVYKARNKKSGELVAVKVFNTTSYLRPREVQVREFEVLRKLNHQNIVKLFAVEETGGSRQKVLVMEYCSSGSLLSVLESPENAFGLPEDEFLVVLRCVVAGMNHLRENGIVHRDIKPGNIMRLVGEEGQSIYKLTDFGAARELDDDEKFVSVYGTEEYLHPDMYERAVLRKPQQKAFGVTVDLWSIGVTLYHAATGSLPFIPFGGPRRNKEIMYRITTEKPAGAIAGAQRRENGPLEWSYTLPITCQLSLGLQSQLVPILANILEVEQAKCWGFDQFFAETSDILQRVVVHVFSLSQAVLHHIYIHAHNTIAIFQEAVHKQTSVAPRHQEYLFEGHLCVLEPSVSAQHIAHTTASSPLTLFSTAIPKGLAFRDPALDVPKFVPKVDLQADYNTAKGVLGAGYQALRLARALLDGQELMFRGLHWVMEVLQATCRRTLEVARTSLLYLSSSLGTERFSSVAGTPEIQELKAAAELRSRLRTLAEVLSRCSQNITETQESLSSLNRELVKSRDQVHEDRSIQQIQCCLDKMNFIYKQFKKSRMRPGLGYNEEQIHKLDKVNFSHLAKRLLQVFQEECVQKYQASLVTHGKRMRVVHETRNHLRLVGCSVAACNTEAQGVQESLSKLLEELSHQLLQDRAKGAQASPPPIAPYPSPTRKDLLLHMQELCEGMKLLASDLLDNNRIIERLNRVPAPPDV
Chain of UniProt P57078 (whole entry, looked up): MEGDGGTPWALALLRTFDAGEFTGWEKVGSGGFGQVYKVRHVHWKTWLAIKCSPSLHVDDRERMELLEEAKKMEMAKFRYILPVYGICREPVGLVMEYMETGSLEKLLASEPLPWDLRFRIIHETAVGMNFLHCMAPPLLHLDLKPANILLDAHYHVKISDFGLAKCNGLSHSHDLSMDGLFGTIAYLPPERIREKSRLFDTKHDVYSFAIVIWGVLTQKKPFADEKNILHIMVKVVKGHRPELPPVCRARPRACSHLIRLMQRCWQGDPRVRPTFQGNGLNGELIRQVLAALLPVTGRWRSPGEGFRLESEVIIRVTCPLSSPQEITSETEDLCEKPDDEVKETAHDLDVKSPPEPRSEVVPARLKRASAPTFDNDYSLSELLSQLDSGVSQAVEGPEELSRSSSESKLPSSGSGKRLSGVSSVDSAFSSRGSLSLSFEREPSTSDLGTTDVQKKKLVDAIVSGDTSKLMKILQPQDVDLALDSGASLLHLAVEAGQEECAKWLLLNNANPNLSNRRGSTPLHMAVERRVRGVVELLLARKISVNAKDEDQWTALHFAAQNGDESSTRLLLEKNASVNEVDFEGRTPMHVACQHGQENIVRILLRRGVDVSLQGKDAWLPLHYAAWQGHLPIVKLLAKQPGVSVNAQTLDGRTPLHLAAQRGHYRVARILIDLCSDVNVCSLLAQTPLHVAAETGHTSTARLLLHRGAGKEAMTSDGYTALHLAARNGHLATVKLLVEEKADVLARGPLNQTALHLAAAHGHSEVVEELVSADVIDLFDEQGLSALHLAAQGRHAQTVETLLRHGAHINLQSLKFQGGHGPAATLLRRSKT
Chain of UniProt Q9UPZ9 (whole entry, looked up): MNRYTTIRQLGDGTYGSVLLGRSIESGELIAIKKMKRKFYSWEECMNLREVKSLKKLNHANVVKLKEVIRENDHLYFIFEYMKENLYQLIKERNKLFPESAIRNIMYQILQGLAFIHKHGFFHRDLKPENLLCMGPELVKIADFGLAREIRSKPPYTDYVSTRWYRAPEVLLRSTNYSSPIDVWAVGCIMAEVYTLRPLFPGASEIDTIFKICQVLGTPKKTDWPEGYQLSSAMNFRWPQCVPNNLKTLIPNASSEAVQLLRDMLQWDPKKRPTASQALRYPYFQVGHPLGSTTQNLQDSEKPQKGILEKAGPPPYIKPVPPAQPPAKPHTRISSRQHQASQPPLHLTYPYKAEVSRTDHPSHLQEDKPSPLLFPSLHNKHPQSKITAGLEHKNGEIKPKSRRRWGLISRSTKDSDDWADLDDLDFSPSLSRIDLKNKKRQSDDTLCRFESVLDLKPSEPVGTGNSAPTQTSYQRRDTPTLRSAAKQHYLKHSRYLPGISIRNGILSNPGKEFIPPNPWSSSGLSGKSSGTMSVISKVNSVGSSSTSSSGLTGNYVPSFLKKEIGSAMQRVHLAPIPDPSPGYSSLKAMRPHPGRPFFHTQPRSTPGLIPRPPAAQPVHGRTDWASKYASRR
Chain of UniProt Q9UIK4 (whole entry, looked up): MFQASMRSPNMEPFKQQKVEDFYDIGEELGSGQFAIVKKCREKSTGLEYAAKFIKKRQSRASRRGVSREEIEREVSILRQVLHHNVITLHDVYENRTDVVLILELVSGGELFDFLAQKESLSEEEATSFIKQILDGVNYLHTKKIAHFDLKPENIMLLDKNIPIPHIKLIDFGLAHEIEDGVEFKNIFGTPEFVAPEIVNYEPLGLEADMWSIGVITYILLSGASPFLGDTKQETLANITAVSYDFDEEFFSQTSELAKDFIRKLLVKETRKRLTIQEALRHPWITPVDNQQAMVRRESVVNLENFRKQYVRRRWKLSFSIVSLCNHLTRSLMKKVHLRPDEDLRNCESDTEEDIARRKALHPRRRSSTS
Chain of UniProt Q15831 (whole entry, looked up): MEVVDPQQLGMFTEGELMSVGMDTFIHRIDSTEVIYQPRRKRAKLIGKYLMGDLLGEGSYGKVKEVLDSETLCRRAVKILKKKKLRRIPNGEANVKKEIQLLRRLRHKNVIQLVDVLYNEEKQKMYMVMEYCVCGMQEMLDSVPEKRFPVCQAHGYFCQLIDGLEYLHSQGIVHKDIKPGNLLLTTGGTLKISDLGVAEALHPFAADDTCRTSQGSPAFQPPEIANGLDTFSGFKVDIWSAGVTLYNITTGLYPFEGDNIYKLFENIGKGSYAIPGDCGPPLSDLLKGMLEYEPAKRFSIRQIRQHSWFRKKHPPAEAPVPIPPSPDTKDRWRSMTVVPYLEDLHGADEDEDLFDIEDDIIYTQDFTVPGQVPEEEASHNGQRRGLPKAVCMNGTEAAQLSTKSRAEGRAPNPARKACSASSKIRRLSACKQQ
Chain of UniProt P51955 (whole entry, looked up): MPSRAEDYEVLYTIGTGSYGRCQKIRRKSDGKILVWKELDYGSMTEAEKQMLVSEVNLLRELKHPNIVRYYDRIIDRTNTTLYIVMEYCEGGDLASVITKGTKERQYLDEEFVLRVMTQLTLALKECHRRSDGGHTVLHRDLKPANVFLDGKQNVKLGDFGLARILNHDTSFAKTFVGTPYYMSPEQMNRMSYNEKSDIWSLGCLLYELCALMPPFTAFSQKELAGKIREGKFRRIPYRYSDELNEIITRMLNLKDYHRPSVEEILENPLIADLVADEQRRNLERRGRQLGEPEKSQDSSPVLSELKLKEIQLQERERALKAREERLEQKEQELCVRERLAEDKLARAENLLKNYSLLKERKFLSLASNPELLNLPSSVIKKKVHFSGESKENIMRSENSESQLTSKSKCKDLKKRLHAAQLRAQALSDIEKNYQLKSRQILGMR

Series 1
Species: mouse
Sample: microsomes or S9
Concentration: 2 µM
Time: 0.5 h
The remaining compound of `O=C1N[C@@H](Cc2c[nH]c3ccccc23)C(=O)N2CCC[C@@H]12` is reported as 93.2%.
For `Cc1ccccc1NC(=O)CC(=O)NS(=O)(=O)c1ccc(Cl)cc1`, the remaining compound was 25.7%.
`Cc1cccc(NC(=O)c2oc3ccccc3c2NC(=O)c2cc(-c3ccc4c(c3)OCCO4)on2)c1` gave a remaining compound of 46.1%.
For `Cc1cc(C)nc(Nc2n[nH]c(COc3ccccc3)n2)n1`, the remaining compound was 3.95%.
`NS(=O)(=O)C1(CNc2nccc3cccnc23)CCC1` gave a remaining compound of 0.0332%.
For `CC1(C(=O)NC2CCCC2)Cn2c(cc3ccsc32)C(=O)N1c1ccc2c(c1)OCCO2` (stereo not shown), the remaining compound was 0.0918%.
For `CCOC(=O)c1c2ccc(N(CC)CC)cc2n2c(Cl)cccc12`, the remaining compound was 67.8%.
`CCC1(c2ccc(NC(=O)c3c(OC)cccc3OC)cc2)CCC(=O)N=C1O` (stereo not shown) has a remaining compound of 41%.
With `COC1CCN(c2ncnc3c2c(Br)cn3S(=O)(=O)c2ccc(C)cc2)CC1` the remaining compound was less than 1%.
The remaining compound of `O=C(NCCN1CCCCC1)c1cc2ccc3ccccc3c2o1` is reported as 6.43%.

Series 2
Structure (SMILES): CC(C)[C@H](CO)Nc1nc(Nc2cccc(Cl)c2)c2ncn(C(C)C)c2n1
Effect on: enzyme activity
Mode: inhibitor
Concentration: 0.5 µM
Reference: control
Calcium/calmodulin-dependent protein kinase type II subunit delta (CAMK2D, Homo sapiens, UniProt Q13557) — remaining activity: 102%.
Inhibitor of nuclear factor kappa-B kinase subunit epsilon (IKBKE, Homo sapiens, UniProt Q14164) — remaining activity: 99.2%.
For Serine/threonine-protein kinase Nek2 (NEK2, Homo sapiens, UniProt P51955): remaining activity read 102%.
The remaining activity was 103% (TGF-beta receptor type-1 (TGFBR1, Homo sapiens, UniProt P36897)).
The remaining activity was 102% (Protein kinase C beta type, isoform beta-I (PRKCB, Homo sapiens, UniProt P05771)).
The remaining activity was 111% (Death-associated protein kinase 2 (DAPK2, Homo sapiens, UniProt Q9UIK4)).
Protein kinase C alpha type (PRKCA, Homo sapiens, UniProt P17252) — remaining activity: 115%.
It gave 70.9% for remaining activity (Calcium/calmodulin-dependent protein kinase kinase 2 (CAMKK2, Homo sapiens, UniProt Q96RR4)).
Death-associated protein kinase 1 (DAPK1, Homo sapiens, UniProt P53355) — remaining activity: 99.7%.

Series 3
Cell line: HaCaT
Concentration: 100 µM
Time: 36 h
For `CCc1oc2ccccc2c1C(=O)c1cc(Br)c(O)c(Br)c1`, the viability was 47.8%.
`O=C(CCCN1CC=C(n2c(=O)[nH]c3ccccc32)CC1)c1ccc(F)cc1` has a viability of 7.24%.
`N[C@@H](Cc1cc(I)c(Oc2ccc(O)c(I)c2)c(I)c1)C(=O)O` gave a viability of 67.4%.
`OC[C@@H](O)[C@@H](O)[C@H](O)[C@H](O)CO` has a viability of 84.7%.

Series 4
Structure (SMILES): CC(=O)Nc1c(C(C)=O)c(=O)n(C)c2nc(-c3ccc(Cl)cc3Cl)c(-c3ccc(Cl)cc3)cc12
Technique: competition with immobilised ligand
Concentration: 1 µM
Receptor-interacting serine/threonine-protein kinase 4 (RIPK4, Homo sapiens, UniProt P57078); cell-free assay — remaining binding: 93%.
It gave 86% for remaining binding (Epidermal growth factor receptor (EGFR, Homo sapiens, UniProt P00533, del747-752/P753S); cell-free assay).
Insulin receptor-related protein (INSRR, Homo sapiens, UniProt P14616); cell-free assay — remaining binding: 100%.
It gave 100% for remaining binding (Calcium/calmodulin-dependent protein kinase type 1 (CAMK1, Homo sapiens, UniProt Q14012); cell-free assay).
It gave 100% for remaining binding (Serine/threonine-protein kinase PAK 1 (PAK1, Homo sapiens, UniProt Q13153); cell-free assay).
The remaining binding was 100% (Receptor-type tyrosine-protein kinase FLT3 (FLT3, Homo sapiens, UniProt P36888, ITD); cell-free assay).
The remaining binding was 100% (Serine/threonine-protein kinase ICK (CILK1, Homo sapiens, UniProt Q9UPZ9); cell-free assay).
For Dual serine/threonine and tyrosine protein kinase (DSTYK, Homo sapiens, UniProt Q6XUX3); cell-free assay: remaining binding read 100%.
For Serine/threonine-protein kinase STK11 (STK11, Homo sapiens, UniProt Q15831); binding: remaining binding read 43%.
The remaining binding was 100% (MAP kinase-interacting serine/threonine-protein kinase 1 (MKNK1, Homo sapiens, UniProt Q9BUB5); cell-free assay).
It gave 91% for remaining binding (Receptor tyrosine-protein kinase erbB-4 (ERBB4, Homo sapiens, UniProt Q15303); cell-free assay).

Some of these lines once more (series 3):
For `CCc1oc2ccccc2c1C(=O)c1cc(Br)c(O)c(Br)c1`, the viability was 47.8%.
`O=C(CCCN1CC=C(n2c(=O)[nH]c3ccccc32)CC1)c1ccc(F)cc1` has a viability of 7.24%.
